{"data": "Measured values collected from several papers", "note": "Numbered parts are unrelated; each lists some results of a single study. “And” joins repeats or separate records; there may be more than shown. Positions count from the first letter of the parent shown."}
{"data": "Series 1", "target": "Ras GTPase-activating protein-binding protein 1, RRM domain (G3BP1, Homo sapiens, UniProt Q13283)", "technique": "RNA Bind-n-Seq", "form": "RNA", "sample": "in vitro", "concentration": "1 µM", "notes": "whole 134-nt RNA, ends assumed", "with": "150 mM KCl", "relative to": "input library", "direction": "higher = stronger binding", "constant ends, left off below": "GGGAGUUCUACAGUCCGACGAUC … UGGAAUUCUCGGGUGUCAAGG", "UniProt Q13283, sequence (whole entry, looked up)": "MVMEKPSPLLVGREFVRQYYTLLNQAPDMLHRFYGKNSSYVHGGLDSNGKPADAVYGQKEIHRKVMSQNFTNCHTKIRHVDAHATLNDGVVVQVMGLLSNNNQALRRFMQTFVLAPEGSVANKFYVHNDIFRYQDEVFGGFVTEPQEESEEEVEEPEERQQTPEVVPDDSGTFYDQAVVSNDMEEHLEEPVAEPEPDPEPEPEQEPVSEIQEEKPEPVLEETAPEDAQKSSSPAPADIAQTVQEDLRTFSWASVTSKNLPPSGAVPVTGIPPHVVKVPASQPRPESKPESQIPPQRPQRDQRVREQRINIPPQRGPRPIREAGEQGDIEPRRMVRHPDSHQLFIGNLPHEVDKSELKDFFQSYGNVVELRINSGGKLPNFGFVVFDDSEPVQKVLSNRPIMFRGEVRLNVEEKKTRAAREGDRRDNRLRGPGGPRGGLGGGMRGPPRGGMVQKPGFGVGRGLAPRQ"}
{"Strand": "UGCUGAAGCUCACACCCGUGGACCACCCAGACUGCCUGCCGCUACAGGAUGCCCUCCGCAUCUCCCAGGACUUCUUUCCGGCAUCAGUGU", "log2 enrichment": -0.407}
{"Strand": "UGUGCUACACAUCGUAUGUACCGAAUCGGGGUUUUUUUGGGUUUUUUUGGGGUUUUUUUGGGAAAGUAUUAUGUUACGCCGUUCGGAUCU", "log2 enrichment": -0.2}
{"Strand": "UCCUGUGCUACACAUCGUAUGUACCGAAUCGGCCCCCCCGGCCCCCCCGGGCCCCCCCGGAAAGUAUUAUGUUACGCCGUUCGGAUCUGC", "log2 enrichment": -0.472}
{"Strand": "GCAGGAAGUAAAAACAAAUGGAAAUGCUUCGGAUAGUGGCAGGGGUGGGGGUUGCUAAGGAAAGGGUGGGAUGGGAGUGAAAAAAGAGUU", "log2 enrichment": 1.1}
{"Strand": "AGUCCUGUGCUACACAUCGUAUGUACCGAAUCGGUUUUUGGUUUUUUUGGAAAAAGGAAAGUAUUAUGUUACGCCGUUCGGAUCUGCACU", "log2 enrichment": -0.139}
{"Strand": "AAGUCCUGUGCUACACAUCGUAUGUACCGAAUCGGGAAAAGGGGAAAAGGAAAAGGGAAAGUAUUAUGUUACGCCGUUCGGAUCUGCACU", "log2 enrichment": 0.0911}
{"Strand": "UCCUGUGCUACACAUCGUAUGUACCGAAUCGGCCCCCCGGGCCCCCCGGGCCCCCCGGGGAAAGUAUUAUGUUACGCCGUUCGGAUCUGC", "log2 enrichment": -0.478}
{"Strand": "UUACUACCUCCGCCUUCAUUUCCGUCAGCAAUCCCGGCGCGGGCUCCCCGGCCCCCGCCAGCCCGCCUCCCCUCGCUGUGCCCGGGACCG", "log2 enrichment": -0.638}
{"Strand": "AAGUCCUGUGCUACACAUCGUAUGUACCGAAUCAAACCCAAACCCAAAUUUUUAAAAAAGUAUUAUGUUACGCCGUUCGGAUCUGCACUU", "log2 enrichment": -0.151}
{"Strand": "ACCAUGCAGGUGGGCAUCUUUGGGAAGUGGGGCAAGGGGGGGAUAGGGAGGGGGGUAACACUUAGGGAACAGGUGGUCCCAGGUCGUUUC", "log2 enrichment": 0.974}
{"Strand": "ACCAUGCAGGUGGGCAUCUUUGGGAAGUGGGGCAAGGGGGGGAUAGGGCGGGGGGUAACACUUUGGGAACAGGUGGUCCCAGGUCGUUUC", "log2 enrichment": 1.04}
{"Strand": "CAAGUCCUGUGCUACACAUCGUAUGUACCGAAUCGGUUUGGUUUUUGGUUUUUGGAAAGUAUUAUGUUACGCCGUUCGGAUCUGCACUUC", "log2 enrichment": -0.188}
{"Strand": "UCAAGUCCUGUGCUACACAUCGUAUGUACCGAAUCGGGCCGGGCCGGGGCCGGGGAAAGUAUUAUGUUACGCCGUUCGGAUCUGCACUUC", "log2 enrichment": -0.764}
{"Strand": "UGGCUGCAGGCGCACCCCGGCAGGAUUUUGCCUCCGCUGUCGCCCCCGCAGCACCGCUACUCGGAGGGCGAGCGGACCUCCCUGGAGAAG", "log2 enrichment": -0.508}
{"data": "Series 2", "target": "CCNA2, cyclin fold, Cln2 fusion (human)", "technique": "yeast growth competition, sequencing", "sample": "yeast", "notes": "strong parent motif", "relative to": "not given", "direction": "higher = stronger binding", "starting sequence": "CCP110 docking peptide (human); EKVKRRLDLDIDG"}
{"Change": "D8A", "normalised enrichment score": 3.16}
{"Change": "R5K", "normalised enrichment score": 2.44}
{"Change": "D10A", "normalised enrichment score": 3.62}
{"Change": "E1A", "normalised enrichment score": 5.2}
{"Change": "D12A", "normalised enrichment score": 3.95}
{"Change": "R6A", "normalised enrichment score": 1.57}
{"Change": "I11A", "normalised enrichment score": 3.95}
{"data": "Series 3", "target": "Histone acetyltransferase KAT6A, both winged helices, GST fusion (KAT6A, Homo sapiens, UniProt Q92794, residues 1-181)", "technique": "protein binding microarray", "form": "double-stranded DNA, one strand shown", "sample": "in vitro", "concentration": "not given", "notes": "8-mer, flanks averaged, mean of 2 arrays, mostly near background", "relative to": "not given", "direction": "higher = stronger binding", "Residues (chain)": "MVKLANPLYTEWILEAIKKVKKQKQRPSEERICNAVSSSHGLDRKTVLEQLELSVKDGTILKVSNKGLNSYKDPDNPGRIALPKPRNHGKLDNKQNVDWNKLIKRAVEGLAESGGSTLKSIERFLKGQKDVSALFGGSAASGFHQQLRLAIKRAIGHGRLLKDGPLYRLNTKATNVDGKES"}
{"Strand": "ATTTGGAA", "E-score": -0.167}
{"Strand": "CATTACGC", "E-score": 0.179}
{"Strand": "AGAGGGAG", "E-score": -0.228}
{"Strand": "TCATATGA", "E-score": -0.112}
{"Strand": "CCGTATTC", "E-score": 0.223}
{"Strand": "GCATGGTA", "E-score": 0.0129}
{"Strand": "CCGCATCC", "E-score": 0.224}
{"Strand": "ATTCCTAC", "E-score": -0.0703}
{"Strand": "CGAGGGTA", "E-score": -0.0773}
{"Strand": "AAACGCTG", "E-score": 0.0281}
{"Strand": "CCACATAG", "E-score": -0.0666}
{"Strand": "TAAAACCA", "E-score": -0.0891}
{"Strand": "CCAGGGCG", "E-score": 0.143}
{"Strand": "CCTACCGA", "E-score": -0.0367}
{"Strand": "CACCGAAC", "E-score": 0.115}
{"Strand": "GACTCGTA", "E-score": -0.0192}
{"Strand": "CATTACTC", "E-score": -0.133}
{"Strand": "AGTTTCAT", "E-score": -0.126}
{"Strand": "CCGTAAGA", "E-score": 0.11}
{"Strand": "CGGTCGAC", "E-score": 0.227}
{"data": "Series 4", "target": "ABI1, truncated, D143A, DHFR fusion (Arabidopsis thaliana)", "technique": "DHFR PCA, deep sequencing", "sample": "yeast", "notes": "methotrexate growth selection, single substitutions", "with": "(+)-ABA 4.8 µM", "relative to": "wild-type fitted maximum", "direction": "higher = stronger binding", "starting sequence": "PYL1, truncated, DHFR fusion (Arabidopsis thaliana); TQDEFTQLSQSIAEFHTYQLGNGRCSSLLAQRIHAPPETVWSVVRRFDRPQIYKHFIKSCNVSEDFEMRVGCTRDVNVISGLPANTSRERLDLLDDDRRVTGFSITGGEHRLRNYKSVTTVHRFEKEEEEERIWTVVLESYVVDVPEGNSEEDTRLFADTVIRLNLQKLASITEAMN; partner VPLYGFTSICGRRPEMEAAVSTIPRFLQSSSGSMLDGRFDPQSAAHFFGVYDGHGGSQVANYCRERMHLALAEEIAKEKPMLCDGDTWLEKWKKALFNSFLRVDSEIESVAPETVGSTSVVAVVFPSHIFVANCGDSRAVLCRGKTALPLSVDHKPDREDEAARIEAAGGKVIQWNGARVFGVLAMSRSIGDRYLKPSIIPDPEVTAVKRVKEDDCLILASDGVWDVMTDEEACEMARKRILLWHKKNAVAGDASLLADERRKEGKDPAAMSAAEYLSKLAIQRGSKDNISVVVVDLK"}
{"Change": "I133L", "relative binding score [%]": 76.3}
{"Change": "Y115D", "relative binding score [%]": -15.4}
{"Change": "D92M", "relative binding score [%]": 6.49}
{"Change": "V142N", "relative binding score [%]": 8.82}
{"Change": "L82G", "relative binding score [%]": 26.4}
{"Change": "E129H", "relative binding score [%]": 74.8}
{"Change": "R69N", "relative binding score [%]": 56.3}
{"Change": "E38T", "relative binding score [%]": 33.3}
{"Change": "S11F", "relative binding score [%]": 59.6}
{"Change": "V145I", "relative binding score [%]": 91.6}
{"Change": "R113Y", "relative binding score [%]": 36.8}
{"Change": "F56A", "relative binding score [%]": -4.95}
{"Change": "T135F", "relative binding score [%]": -7.98}
{"Change": "E109A", "relative binding score [%]": 39}
{"Change": "M176Q", "relative binding score [%]": 69.1}
{"data": "Series 5", "target": "RNA binding protein fox-1 homolog 2, RRM domain, GST-SBP tag (RBFOX2, Homo sapiens, UniProt O43251-10, residues 100-194)", "technique": "RNA Bind-n-Seq", "form": "RNA", "sample": "in vitro", "concentration": "365 nM", "notes": "natural RNA segment, single round, ends assumed", "relative to": "no-protein control", "direction": "higher = stronger binding", "constant ends, left off below": "GGGAGUUCUACAGUCCGACGAUC … UGGAAUUCUCGGGUGCCAA", "Target sequence (chain)": "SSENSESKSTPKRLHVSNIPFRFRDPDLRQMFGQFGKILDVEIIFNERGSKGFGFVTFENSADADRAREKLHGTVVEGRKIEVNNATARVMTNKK"}
{"Strand": "UUUUGUUGUUGCGUAGUCUUUGUUUUAUACUUCUACAAUACCCGUAUAGCCUUCCACAUAGAUCUGCAUCAUGUAAGCUCAGGUUACUAUGAUUCCCUUCAGUUUCCUUC", "RBNS enrichment (R)": 0.321}
{"Strand": "UACUGAAAGCAAGCAGUGGCCUAUAAAGAACAUUCUUAGGAGCCUUUUCUAUUUGCGUUCAAAACUGUGUGUUCUCUUUCUAUUCCUAUUUGAUAGUUUGAGUCAUGGUC", "RBNS enrichment (R)": 0.289}
{"Strand": "GAUGAUGGUGACCGUGAAAGUGAAAUGGAAGGGAUGAGUGAAGAGGUUUUGGUUUGUUUGUUUGUUUUUUCUUUUUUUGAGGAAUUUUCAGGGAAGUGAGGAAACCCUUG", "RBNS enrichment (R)": 0.863}
{"Strand": "AGUUAAGUACUGCUUCCAUUCAUUGUUUACGCUGGAAUUUUUCUCCCCAUGGAAUGUAAGUAAAACUUAAGUGUUUGUCAUCAAUAAAUGGUAAUACUAAAUUUUUUUGU", "RBNS enrichment (R)": 0.88}
{"Strand": "CUCCUGUUCCCGCCUCAGUCAGGUGCAGACAAGUGGGCGGUGUCCAUUAAAGAGCAGACUCAGCGUUGCUCUUGGCUGUUCUUUCCUGCCGUGCAGGCUCUGGUCACCCC", "RBNS enrichment (R)": 0.297}
{"Strand": "GAUAUAGCAGUGGCAUCCAAGAGCUCAGCACAGUGUCUGGCAUCUGGUGUGCAUGGGCACAUGUACUGACUAUGACUGUCGGUGUGUGUUGUUAUACAGUCCAGGAACUG", "RBNS enrichment (R)": 7.82}
{"Strand": "UUUAUUUUUUAUUUUAAAAGAAUAUUGACUUAUUUAGCACAAGCUAUUUUUCCCUCUCUGGUGAUAAGGUUUGUACAGACUGGUUUGGUAAAUGCUAAAUUUUUGUCUUU", "RBNS enrichment (R)": 1}
{"Strand": "AAGUAGCUCAGAAAUUAAGAAAGAAUGGUAUAAUGAACCCCCAUAUACCCUUCCUUCUGGAUUCACCAAUUGUUAACAUUUUUUUCCUCUCAGCUAUCCUUCUAAUUUCU", "RBNS enrichment (R)": 0.576}
{"Strand": "AUUAAGCCUGUUGAAGUCACUGAGUCAGCAUAAUAAAGACUGCACAGGAGAAUUACCCCUAUACCUGAGCCUCAACCUUCUGGGGGAAAGGGAACUAGAUAACAUACUUC", "RBNS enrichment (R)": 0.526}
{"Strand": "UCAUGAAAAAAAUAAUGUAAAUCACAGACUUUUGCCAAAGCUCUUAUUUUUUUUCCUAAAUCUCUCCAGAAAAAAAAUGCAAGUGACUAAAUUCAAUUAUUGACUAAUUU", "RBNS enrichment (R)": 0.989}
{"Strand": "UGCCUCUUCUUUACCUCCCGCCUCUAUGGGGAUGACUUUUGAGGCCCCACCUGGGUCAAGGGUUCAGUAUUUUAGUCUAAAACUUCAGAAAGUCAAGCAUCACUUAAGAC", "RBNS enrichment (R)": 0.751}
{"Strand": "CUCAGCUAUUCCUGCAGCCAUGGUCCCCAAGAAGUUUAGCCUAUGGGAGAAGAGAGGGUUUCCCUACAUAUCCCCAGAGAAAUCAGGUGACUUUUUCCCGGAGAUGGGGG", "RBNS enrichment (R)": 0.409}
{"data": "Mixed results"}
{"Substance": "PhoQ, residues 284 288 289 292 302 303 TNSAEL", "target": "PhoP, residues 12 14 15 18 19 LWHCS (Escherichia coli, UniProt P23836)", "assay": "Sort-seq, refers to: YFP reporter", "test system": "E. coli", "setting": "PhoQ-PhoP variant library, with: 10 µM Mg2+", "scale": "relative to: high Mg2+ state, higher = stronger signaling", "measurement": "fold induction", "value": "17.3 and 13.4"}
{"note": "Repeated from above (series 3):"}
{"Strand": "CGAGGGTA", "E-score": -0.0773}
{"Strand": "AGTTTCAT", "E-score": -0.126}
{"Strand": "CATTACGC", "E-score": 0.179}
{"Strand": "CCTACCGA", "E-score": -0.0367}
